Measured values gathered from unrelated publications.
Protocols differ between the studies behind these lines.
T1: PSMG1/PSMG2 heterodimer (Homo sapiens); chain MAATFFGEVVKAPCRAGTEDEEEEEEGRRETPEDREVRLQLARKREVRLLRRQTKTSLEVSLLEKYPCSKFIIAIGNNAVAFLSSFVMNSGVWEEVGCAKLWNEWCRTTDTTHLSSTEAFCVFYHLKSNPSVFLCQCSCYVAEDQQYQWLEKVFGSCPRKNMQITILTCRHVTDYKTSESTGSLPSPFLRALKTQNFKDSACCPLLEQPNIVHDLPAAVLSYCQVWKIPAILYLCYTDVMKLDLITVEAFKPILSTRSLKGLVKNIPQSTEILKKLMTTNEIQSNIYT; chain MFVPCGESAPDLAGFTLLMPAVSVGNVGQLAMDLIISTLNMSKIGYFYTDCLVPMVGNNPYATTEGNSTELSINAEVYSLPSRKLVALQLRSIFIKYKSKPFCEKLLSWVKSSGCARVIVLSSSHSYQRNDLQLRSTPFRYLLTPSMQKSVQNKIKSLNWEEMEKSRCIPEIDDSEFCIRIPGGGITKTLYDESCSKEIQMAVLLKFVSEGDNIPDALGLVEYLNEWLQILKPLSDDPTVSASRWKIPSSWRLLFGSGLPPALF
B1: pduL (Salmonella enterica, UniProt Q9XDN5); sequence looked up; chain MDKELLQSTVRKVLDEMRQRPIPLGVSNRHIHLSAQDYERLFPGHPISEKKALLQPGQYAAEQTVTLVGPKGQLKNVRLLGPLRSVSQVEISRTDARTLGIAAPLRMSGNLKGTPGIRLVSPFAELELPSGVIVAQRHIHMSPLDALILRVSHGDMVSVAIEGDDRGLIFNNVAIRVSPDMRLEMHIDTDEANAAGADNPHAFARLVGPR
B2: CCDC22/CCDC93 DBD dimer (Homo sapiens); chain 1 GAGAKTGAPKGSRFTHSEKFTFHLEPQAQATQVSDVPATSRRPEQVTWAAQEQELESLREQLEGVNRSIEEVEADMKTLGVSFVQAESECRHSKLSTAEREQALRLKSRAVELLPDGTANLAKLQLVVENSAQRVIHLAGQWEKHRVPLLAEYRHLRKLQDCRELES; chain 2 SPEKLGTSQLHRRKVISLNKQIAQKTKHLEELRASHTSLQARYNEAKKTLTELKTYSEKLDKEQAALEKIESKADPSILQNLRALVAMNENLKSQEQEFKAHCREEMTRLQQEIENLKAERAPRGDEKT
B3: lpxC 1-305 (Escherichia coli, UniProt P0A725); chain MIKQRTLKRIVQATGVGLHTGKKVTLTLRPAPANTGVIYRRTDLNPPVDFPADAKSVRDTMLCTCLVNEHDVRISTVEHLNAALAGLGIDNIVIEVNAPEIPIMDGSAAPFVYLLLDAGIDELNCAKKFVRIKETVRVEDGDKWAEFKPYNGFSLDFTIDFNHPAIDSSNQRYAMNFSADAFMRQISRARTFGFMRDIEYLQSRGLCLGGSFDCAIVVDDYRVLNEDGLRFEDEFVRHKMLDAIGDLFMCGHNIIGAFTAYKSGHALNNKLLQAVLAKQEAWEYVTFQDDAELPLAFKAPSAVLA
B4: KAT7 474-611 (Homo sapiens, UniProt O95251); sequence looked up; chain CILTMPQYMRQGYGKMLIDFSYLLSKVEEKVGSPERPLSDLGLISYRSYWKEVLLRYLHNFQGKEISIKEISQETAVNPVDIVSTLQALQMLKYWKGKHLVLKRQDLIDEWIAKEAKRSNSNKTMDPSCLKWTPPKGT
B5: PSMA5 (Homo sapiens, UniProt P28066); chain MFLTRSEYDRGVNTFSPEGRLFQVEYAIEAIKLGSTAIGIQTSEGVCLAVEKRITSPLMEPSSIEKIVEIDAHIGCAMSGLIADAKTLIDKARVETQNHWFTYNETMTVESVTQAVSNLALQFGEEDADPGAMSRPFGVALLFGGVDEKGPQLFHMDPSGTFVQCDARAIGSASEGAQSSLQEVYHKSMTLKEAIKSSLIILKQVMEEKLNATNIELATVQPGQNFHMFTKEELEEVIKDI
B6: CHEK2 109-193 (Homo sapiens, UniProt O96017); chain VNDNYWFGRDKSCEYCFDEPLLKRTDKYRTYSKKHFRIFREVGPKNSYIAYIEDHSGNGTFVNTELVGKGKRRPLNNNSEIALSL
B7: Secisbp2 399-846 x (Rattus norvegicus, UniProt Q9QX72); sequence looked up; chain EFPNLSVASERRHRGESPKLQSKQQAQNDFKTGGKKSQVPVQLDAAAAAAALEKQQHAPHAKPSSRPVVFSVGAVPVLSKDASSGERGRRSSQVKTPHNPLDSSAPLMKKGKQREIPKAKKPTSLKKIILKERQERMQQRLQESAVSPTVASDDSQDVESGVTNQIPSPDNPTGPEKTEEPMSSTPVVEGESEEPAGTEFQRDPEACQPAPDSATFPKIHSRRFRDYCSQMLSKEVDACVTGLLKELVRFQDRMYQKDPVKAKTKRRLVLGLREVLKHLKLRKLKCIIISPNCEKTQSKGGLDDTLHTIIDCACEQNIPFVFALNRKALGRSLNKAVPVSIVGIFSYDGAQDQFHKMVELTMAARQAYKTMLETMRQEQAGEPGPQTPPSPPMQDPIQSTDEGTLASTGEEPHYIEIWRKHLEAYSQHALELEDSLEASTSQMMNLNL
B8: rasC Q62L (Dictyostelium discoideum, UniProt P32253); sequence looked up; chain MSKLLKLVIVGDGGVGKSALTIQLTQNQFIAEYDPTIENSYRKQVNIDEEVYMLDILDTAGLEEYSAMRDQYIRSGRGFLIVYSIISRASFEAVTTFREQILRVKDLSTYPIVIIGNKADLPDKDRKVPPMEGKELAKSFGAPFLETSAKSRVNVEEAFFTLVREIKRWNQNPQNEEMLPPKKRGCIIL
B9: SNAPC1 (Homo sapiens, UniProt Q16533); chain MGTPPGLQTDCEALLSRFQETDSVRFEDFTELWRNMKFGTIFCGRMRNLEKNMFTKEALALAWRYFLPPYTFQIRVGALYLLYGLYNTQLCQPKQKIRVALKDWDEVLKFQQDLVNAQHFDAAYIFRKLRLDRAFHFTAMPKLLSYRMKKKIHRAEVTEEFKDPSDRVMKLITSDVLEEMLNVHDHYQNMKHVISVDKSKPDKALSLIKDDFFDNIKNIVLEHQQWHKDRKNPSLKSKTNDGEEKMEGNSQETERCERAESLAKIKSKAFSVVIQASKSRRHRQVKLDSSDSDSASGQGQVKATRKKEKKERLKPAGRKMSLRNKGNVQNIHKEDKPLSLSMPVITEEEENESLSGTEFTASKKRRKH
B10: HCK 78-138 (Homo sapiens, UniProt P08631); chain SEDIIVVALYDYEAIHHEDLSFQKGDQMVVLEESGEWWKARSLATRKEGYIPSNYVARVDS
B11: ND2 1-469 (Yarrowia lipolytica, UniProt Q9B6C8); sequence looked up; chain MLILAIISLITFVSMSKLSDNRAIIRLINIYLILVLVLDSFLYLLFLNNQTYTVMGELLIFNSFTFYIDMLIYFIMIVISSLYGYNLYNNNLYKTLFEPKKELIILFLINILGALLIVHSNDFITLFVAIELQSYSIYLITAIYNSSYKASKASMLYFFMGGILSILIAYSINTYYSVLNSYTLHSLDSLIINTLDLNLILIALSLGLLFKIGIAPLHKWLISIYENTPILITIYISLIPKISILSYLVLSNISINSLVISILAILTLLVGSVGGLLQIKIKRLLAFSGLTNAGYMMLLLLLNNNEFSYLYYITQYSISHLAIFMIIIFSIYYINYINNQYNPIIYVNQLKGLIHDNAYLVLSMAIVVFSFIGIPPLLGFFGKLNILMSILNNGYYFISIVLIVASLISALYYLYLLNVSIQDKNNILINSNETVSSVLSYILSSLIILITFGFIYNSLIIDIFNVYFN
B12: exbD 43-141 (Escherichia coli, UniProt P0ABV2); sequence looked up; chain VDVKVNLPASTSTPQPRPEKPVYLSVKADNSMFIGNDPVTDETMITALNALTEGKKDTTIFFRADKTVDYETLMKVMDTLHQAGYLKIGLVGEETAKAK
B13: PRE1 (Saccharomyces cerevisiae, UniProt P22141); sequence looked up; chain MDIILGIRVQDSVILASSKAVTRGISVLKDSDDKTRQLSPHTLMSFAGEAGDTVQFAEYIQANIQLYSIREDYELSPQAVSSFVRQELAKSIRSRRPYQVNVLIGGYDKKKNKPELYQIDYLGTKVELPYGAHGYSGFYTFSLLDHHYRPDMTTEEGLDLLKLCVQELEKRMPMDFKGVIVKIVDKDGIRQVDDFQAQ
B14: KMT2B 1-300 (Homo sapiens, UniProt Q9UMN6); chain MAAAAGGGSCPGPGSARGRFPGRPRGAGGGGGRGGRGNGAERVRVALRRGGGATGPGGAEPGEDTALLRLLGLRRGLRRLRRLWAGPRVQRGRGRGRGRGWGPSRGCVPEEESSDGESDEEEFQGFHSDEDVAPSSLRSALRSQRGRAPRGRGRKHKTTPLPPPRLADVAPTPPKTPARKRGEEGTERMVQALTELLRRAQAPQAPRSRACEPSTPRRSRGRPPGRPAGPCRRKQQAVVVAEAAVTIPKPEPPPPVVPVKHQTGSWKCKEGPGPGPGTPRRGGQSSRGGRGGRGRGRGGG
Sequence of UniProt P27986 (whole entry, looked up): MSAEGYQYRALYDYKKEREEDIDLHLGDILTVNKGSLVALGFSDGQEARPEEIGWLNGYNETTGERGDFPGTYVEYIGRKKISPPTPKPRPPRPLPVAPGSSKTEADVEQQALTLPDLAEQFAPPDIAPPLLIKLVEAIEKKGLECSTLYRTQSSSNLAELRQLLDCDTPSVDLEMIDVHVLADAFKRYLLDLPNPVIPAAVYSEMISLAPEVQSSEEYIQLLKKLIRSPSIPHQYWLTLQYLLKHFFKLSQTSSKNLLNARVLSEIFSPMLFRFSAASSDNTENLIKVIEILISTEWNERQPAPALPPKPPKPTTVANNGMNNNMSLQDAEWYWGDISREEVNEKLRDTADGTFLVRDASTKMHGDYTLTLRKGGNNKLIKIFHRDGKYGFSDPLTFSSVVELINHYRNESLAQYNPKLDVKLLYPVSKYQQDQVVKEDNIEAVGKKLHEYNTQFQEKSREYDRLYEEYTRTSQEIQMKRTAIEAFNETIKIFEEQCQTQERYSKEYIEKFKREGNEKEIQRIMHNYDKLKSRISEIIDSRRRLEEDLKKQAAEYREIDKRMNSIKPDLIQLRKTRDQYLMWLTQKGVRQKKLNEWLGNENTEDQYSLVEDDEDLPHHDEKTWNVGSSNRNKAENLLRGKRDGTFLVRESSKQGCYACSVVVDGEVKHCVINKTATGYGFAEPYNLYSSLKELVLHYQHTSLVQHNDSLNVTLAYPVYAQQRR
Sequence of UniProt Q04929 (whole entry, looked up): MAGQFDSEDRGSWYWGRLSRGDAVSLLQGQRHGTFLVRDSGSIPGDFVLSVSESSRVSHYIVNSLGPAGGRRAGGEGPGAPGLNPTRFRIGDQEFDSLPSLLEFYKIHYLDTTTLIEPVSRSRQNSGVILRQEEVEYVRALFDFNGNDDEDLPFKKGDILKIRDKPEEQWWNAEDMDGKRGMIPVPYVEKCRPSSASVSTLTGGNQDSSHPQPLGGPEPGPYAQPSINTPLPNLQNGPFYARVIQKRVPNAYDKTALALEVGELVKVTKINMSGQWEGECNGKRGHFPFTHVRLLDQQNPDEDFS
Sequence of UniProt P0AB58 (whole entry, looked up): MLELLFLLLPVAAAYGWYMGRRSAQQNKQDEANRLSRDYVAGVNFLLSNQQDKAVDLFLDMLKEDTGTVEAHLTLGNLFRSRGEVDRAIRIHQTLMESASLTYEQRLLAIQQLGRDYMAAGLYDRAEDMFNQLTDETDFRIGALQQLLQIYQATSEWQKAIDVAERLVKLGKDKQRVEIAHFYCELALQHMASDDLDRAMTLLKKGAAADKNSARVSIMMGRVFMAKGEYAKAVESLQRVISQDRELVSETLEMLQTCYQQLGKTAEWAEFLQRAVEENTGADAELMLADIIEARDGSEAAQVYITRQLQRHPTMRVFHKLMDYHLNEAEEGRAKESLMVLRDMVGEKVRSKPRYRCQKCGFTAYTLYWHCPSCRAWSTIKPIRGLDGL
Sequence of UniProt P30043 (whole entry, looked up): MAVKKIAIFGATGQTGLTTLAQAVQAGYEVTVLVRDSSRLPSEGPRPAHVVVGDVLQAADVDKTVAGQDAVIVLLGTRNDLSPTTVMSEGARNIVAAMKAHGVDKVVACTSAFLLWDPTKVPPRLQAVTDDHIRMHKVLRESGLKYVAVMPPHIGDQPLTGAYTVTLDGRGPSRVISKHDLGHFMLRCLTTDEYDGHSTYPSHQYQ
Sequence of UniProt P43583 (whole entry, looked up): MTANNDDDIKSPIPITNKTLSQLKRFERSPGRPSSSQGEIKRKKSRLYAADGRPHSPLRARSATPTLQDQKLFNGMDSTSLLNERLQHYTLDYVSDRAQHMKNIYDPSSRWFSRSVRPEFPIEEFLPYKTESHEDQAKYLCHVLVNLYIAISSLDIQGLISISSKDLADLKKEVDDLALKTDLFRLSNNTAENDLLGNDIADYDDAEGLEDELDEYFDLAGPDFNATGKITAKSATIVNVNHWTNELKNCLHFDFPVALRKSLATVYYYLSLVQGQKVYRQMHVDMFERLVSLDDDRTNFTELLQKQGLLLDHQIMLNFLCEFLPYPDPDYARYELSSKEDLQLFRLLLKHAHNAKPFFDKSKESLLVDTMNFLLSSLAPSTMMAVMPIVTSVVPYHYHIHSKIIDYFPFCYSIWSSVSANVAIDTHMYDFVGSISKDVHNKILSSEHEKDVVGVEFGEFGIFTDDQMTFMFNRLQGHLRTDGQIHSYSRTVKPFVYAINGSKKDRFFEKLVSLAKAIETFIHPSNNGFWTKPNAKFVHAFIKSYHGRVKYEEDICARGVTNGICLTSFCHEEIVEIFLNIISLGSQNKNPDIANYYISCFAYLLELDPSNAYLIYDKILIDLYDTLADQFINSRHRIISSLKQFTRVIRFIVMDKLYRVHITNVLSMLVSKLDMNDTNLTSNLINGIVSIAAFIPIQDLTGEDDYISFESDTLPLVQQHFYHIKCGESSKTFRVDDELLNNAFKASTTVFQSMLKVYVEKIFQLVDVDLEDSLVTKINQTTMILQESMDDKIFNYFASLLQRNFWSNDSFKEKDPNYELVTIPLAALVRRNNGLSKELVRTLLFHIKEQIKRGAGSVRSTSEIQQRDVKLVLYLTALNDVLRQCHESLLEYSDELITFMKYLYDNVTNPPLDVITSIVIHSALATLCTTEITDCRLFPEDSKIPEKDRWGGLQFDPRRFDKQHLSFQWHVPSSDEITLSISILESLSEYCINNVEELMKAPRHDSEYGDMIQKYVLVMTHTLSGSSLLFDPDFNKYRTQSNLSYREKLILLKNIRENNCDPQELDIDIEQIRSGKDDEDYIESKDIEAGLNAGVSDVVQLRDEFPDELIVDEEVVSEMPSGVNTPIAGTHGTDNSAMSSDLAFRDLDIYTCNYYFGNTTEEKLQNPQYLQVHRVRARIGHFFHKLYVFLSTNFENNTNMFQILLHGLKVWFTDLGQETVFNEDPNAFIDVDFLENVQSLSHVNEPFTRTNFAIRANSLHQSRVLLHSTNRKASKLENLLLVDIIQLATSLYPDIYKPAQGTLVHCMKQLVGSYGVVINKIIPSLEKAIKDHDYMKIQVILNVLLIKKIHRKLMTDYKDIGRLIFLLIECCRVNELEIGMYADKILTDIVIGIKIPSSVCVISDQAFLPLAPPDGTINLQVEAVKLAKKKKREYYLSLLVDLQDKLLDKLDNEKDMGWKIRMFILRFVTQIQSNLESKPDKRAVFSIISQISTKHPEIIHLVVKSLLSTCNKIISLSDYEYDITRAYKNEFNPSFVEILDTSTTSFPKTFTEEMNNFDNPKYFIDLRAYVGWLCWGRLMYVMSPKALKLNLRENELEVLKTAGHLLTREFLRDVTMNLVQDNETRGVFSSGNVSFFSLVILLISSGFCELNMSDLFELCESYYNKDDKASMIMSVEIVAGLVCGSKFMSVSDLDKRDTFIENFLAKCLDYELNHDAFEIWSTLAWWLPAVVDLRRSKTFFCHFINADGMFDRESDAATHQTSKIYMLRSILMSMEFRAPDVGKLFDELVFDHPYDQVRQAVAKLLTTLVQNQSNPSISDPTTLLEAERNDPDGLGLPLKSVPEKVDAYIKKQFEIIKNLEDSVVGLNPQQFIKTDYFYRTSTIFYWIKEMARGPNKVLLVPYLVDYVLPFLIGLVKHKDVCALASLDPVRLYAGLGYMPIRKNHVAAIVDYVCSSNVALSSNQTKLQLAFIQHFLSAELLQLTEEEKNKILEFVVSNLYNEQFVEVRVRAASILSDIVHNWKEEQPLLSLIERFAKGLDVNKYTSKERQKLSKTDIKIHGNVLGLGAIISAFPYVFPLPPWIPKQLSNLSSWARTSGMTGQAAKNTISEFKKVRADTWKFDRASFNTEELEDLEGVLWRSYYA
Sequence of UniProt Q8TCE6 (whole entry, looked up): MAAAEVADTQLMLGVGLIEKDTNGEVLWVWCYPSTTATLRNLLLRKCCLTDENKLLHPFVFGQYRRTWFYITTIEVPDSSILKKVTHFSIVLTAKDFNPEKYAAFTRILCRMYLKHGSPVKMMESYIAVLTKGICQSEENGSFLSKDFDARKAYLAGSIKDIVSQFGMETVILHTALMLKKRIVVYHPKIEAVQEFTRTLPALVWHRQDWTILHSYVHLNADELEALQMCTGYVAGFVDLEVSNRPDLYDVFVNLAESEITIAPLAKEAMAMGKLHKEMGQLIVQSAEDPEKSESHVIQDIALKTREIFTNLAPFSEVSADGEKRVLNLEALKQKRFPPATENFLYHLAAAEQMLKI
Sequence of UniProt P53490 (whole entry, looked up): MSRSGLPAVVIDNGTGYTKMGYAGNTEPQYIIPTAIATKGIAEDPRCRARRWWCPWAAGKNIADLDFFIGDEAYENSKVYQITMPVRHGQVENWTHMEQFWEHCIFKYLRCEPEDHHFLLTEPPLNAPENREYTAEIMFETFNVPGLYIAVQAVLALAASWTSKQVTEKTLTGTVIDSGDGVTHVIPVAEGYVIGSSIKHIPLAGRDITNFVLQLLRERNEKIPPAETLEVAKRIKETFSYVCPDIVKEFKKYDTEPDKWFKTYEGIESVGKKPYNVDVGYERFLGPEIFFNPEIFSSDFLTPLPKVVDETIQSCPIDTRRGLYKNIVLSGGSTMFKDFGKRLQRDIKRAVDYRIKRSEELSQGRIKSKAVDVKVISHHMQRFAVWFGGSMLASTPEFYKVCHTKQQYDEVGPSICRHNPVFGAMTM
Sequence of UniProt P12004 (whole entry, looked up): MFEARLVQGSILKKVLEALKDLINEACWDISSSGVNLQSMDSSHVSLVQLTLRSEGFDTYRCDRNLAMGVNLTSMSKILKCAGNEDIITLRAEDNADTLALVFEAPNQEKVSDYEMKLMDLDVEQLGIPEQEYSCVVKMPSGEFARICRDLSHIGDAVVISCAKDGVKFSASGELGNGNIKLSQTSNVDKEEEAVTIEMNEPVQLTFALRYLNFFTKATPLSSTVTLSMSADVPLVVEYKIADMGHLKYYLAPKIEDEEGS

`B1 (pduL)`: binding “binds” (PduB (Salmonella enterica Typhimurium LT2, UniProt P37449); cross-linking).
For `KKATQASQEY (H2AX residues 134-143 (Homo sapiens); pS139, fluorescein label)`, binding read “binds” (MDC1 BRCT 1891-2089 (Homo sapiens, UniProt Q14676); fluorescence polarisation; peptide).
`B2 (CCDC22/CCDC93 DBD dimer)`: binding “binds” (DENND10 (Homo sapiens, UniProt Q8TCE6); pull-down).
Under binding, `B3 (lpxC 1-305)` is recorded as “binds” (lapB 21-389 (Escherichia coli, UniProt P0AB58); pull-down).
Under binding, `B4 (KAT7 474-611)` is recorded as “binds” (HDAC2 (Homo sapiens, UniProt Q92769); pull-down).
For `B5 (PSMA5)`, binding read “binds” (T1, PSMG1/PSMG2 heterodimer (Homo sapiens); cryo-EM).
For `RXRA (Homo sapiens, UniProt P19793)`, binding read “binds” (PIK3R1 (Bos taurus, UniProt P23727); pull-down; with: 9cRA 1 µM).
For `Arp2 (Acanthamoeba castellanii, UniProt P53487)`, binding read “binds” (Arp3 (Acanthamoeba castellanii, UniProt P53490); negative-stain EM).
`B6 (CHEK2 109-193)`: binding “binds” (SQSTM1 (Homo sapiens, UniProt Q13501); pull-down).
`GPEPGPYAQPSVNTP (CRK residues 215-229; phosphotyrosine)`: binding “binds” (CRK 13-119 (Gallus gallus, UniProt Q04929); pull-down; peptide).
`B7 (Secisbp2 399-846 x)` — result for binding: “binds” (Eefsec (Mus musculus, UniProt Q9JHW4); EMSA).
Under binding, `B8 (rasC Q62L)` is recorded as “binds” (racE T25N/S192D (Dictyostelium discoideum); SEC).
Under binding, `MQRSIMSFFHPKKEGKAKKPEKE (LIG1 1-23 (Homo sapiens, UniProt P18858); sequence looked up)` is recorded as “binds” (PCNA (Homo sapiens, UniProt P12004); co-IP; peptide).
For `B9 (SNAPC1)`, binding read “binds” (SNAPC4 (Homo sapiens, UniProt Q5SXM2); cross-linking).
For `NGVTKTILEPRARVEKDYGKISLEHKTKYSNEYGD (gld-3 860-894 (Caenorhabditis elegans, UniProt Q95ZK7); sequence looked up)`, binding read “binds” (fbf-2 164-575 (Caenorhabditis elegans, UniProt Q09312); fluorescence polarisation).
`B10 (HCK 78-138)`: binding “binds” (PIK3R1 80-333 (Homo sapiens, UniProt P27986); ITC).
Under binding, `B11 (ND2 1-469)` is recorded as “binds” (ND4 1-486 (Yarrowia lipolytica, UniProt Q9B6D6); cryo-EM).
`B12 (exbD 43-141)`: binding “binds” (tonB 34-239 (Escherichia coli, UniProt P02929); NMR titration).
With `GSGAGSETVV` the binding intensity was 0.386 (human SCRIB PDZ3-4 tandem (MBP fusion); automated holdup; peptide, crude extract; concentration not given, uncorrected, unit not given; reference: biotin control resin, higher = stronger binding).
For `MEELQDDYEDMMEENLEQEEYEDPDIPESQ (SLC4A1 1-30 (Homo sapiens, UniProt P02730); sequence looked up)`, binding read “binds” (BLVRB (Homo sapiens, UniProt P30043); NMR titration; peptide).
For `B13 (PRE1)`, binding read “binds” (BLM10 (Saccharomyces cerevisiae, UniProt P43583); cryo-EM particle classification).
For `B14 (KMT2B 1-300)`, binding read “binds” (PRMT1 (Homo sapiens, UniProt Q99873); pull-down).
`SKKNNAASELANAYSSYVSQIRKHKRVSPNAAPR (Nup60 285-318 P297A (Saccharomyces cerevisiae, UniProt P39705); sequence looked up)` — result for binding: “binds” (NUP85/SEH1 Nup85 1-564 (Saccharomyces cerevisiae); pull-down; peptide).

Repeated from above:
`B12 (exbD 43-141)`: binding “binds” (tonB 34-239 (Escherichia coli, UniProt P02929); NMR titration).
